Published values of several laboratories.
Each numbered part is a random draw from the data of one study; scales do not carry over between parts.

Series 1
Target: RNA binding protein fox-1 homolog 2, RRM domain, GST-SBP tag (RBFOX2, Homo sapiens, UniProt O43251-10, residues 100-194)
Technique: RNA Bind-n-Seq
Form: RNA
Matrix: in vitro
Tested at: 365 nM
Notes: natural RNA segment, single round, ends assumed
Baseline: no-protein control
Reading: higher = stronger binding
Construct (chain): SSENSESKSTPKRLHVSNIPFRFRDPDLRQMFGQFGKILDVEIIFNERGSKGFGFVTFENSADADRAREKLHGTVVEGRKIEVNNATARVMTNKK
`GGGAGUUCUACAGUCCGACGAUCCAGUGAAGGUCUCAGACCAAGGGGUACAAGAACUCCAGCACACCCAGAGAUGGUCAUGCACAGCCUCUUGAGACGCAUGUCACAAUGUCCUAUGACAGAGAAUGACUUAGUGGAAUUCUCGGGUGCCAA` — result for “RBNS enrichment (R)”: 1.7.
Under “RBNS enrichment (R)”, `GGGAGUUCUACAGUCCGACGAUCCAGGUUAUGCCUCAUGCUGACUUGCAGAGUUCAUGGAAUGUAACUAUAUCAUCCUUUAUCCCUGAGGUCACCUGGAAUCAGAUUAUUAAGGGAAUAAGCCAUGACGUCAAUGGAAUUCUCGGGUGCCAA` is recorded as 0.263.
`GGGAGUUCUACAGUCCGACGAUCUGAGGACGAGGAAGUUUCUGCCACUGCUUGCAGCUUUUCUGUGUGCUUUGGACUUGCUUUAGGAGGGAAAUAUAGCUUUGUAGAGAUAAAGGCUGACAUCUGGGGUCUAGUGGAAUUCUCGGGUGCCAA` — result for “RBNS enrichment (R)”: 1.07.
For `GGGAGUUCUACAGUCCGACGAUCGAGAAUGUGCUAGAGACAGCCCCUGUCUUCUUGGCGUGGUUUAUAUGUCCGGGAUCUGGAUCAGAUUCUGGGGGCUCAGAAACGUCGGUUGCAUUGAGCUACUGGGGGUAUGGAAUUCUCGGGUGCCAA`, “RBNS enrichment (R)” read 0.724.
`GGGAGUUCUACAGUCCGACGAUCCUCUGCAGACCCAGCACCCUCGGAUGCCCCUCCAGCGGCUCGACAACGACGUGGACCUGCGUGGGGACCAGCCCUCCCUGGGCAGCUUCACCUACUCCACCUCUGCGCCUUGGAAUUCUCGGGUGCCAA` — result for “RBNS enrichment (R)”: 0.233.
For `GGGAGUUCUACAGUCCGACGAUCUUGAUAUGAUCCAACAAAUUUGAUCAGAAGCUGUAGGUAAAUCCUCUUCUGAAGCCAAAAUGGUAUAUUAAAUAUAAUUUAUUGGUACUUCCAUUUUCUCUUCCUUCUUAUGGAAUUCUCGGGUGCCAA`, “RBNS enrichment (R)” read 0.697.
For `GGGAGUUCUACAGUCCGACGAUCCUCAAUGUCAACUUUUUUCACUGAAUAAAAAUUUAACUGGGUCAAGAAAACACCUCUUUGAAAAUCCACUGUCUCUGUGUGUCUCGAGCUGUUCUUUAGAGCGCAAUAAAUGGAAUUCUCGGGUGCCAA`, “RBNS enrichment (R)” read 0.643.
Under “RBNS enrichment (R)”, `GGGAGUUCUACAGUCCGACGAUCCCAUUCCCUAGCCAGCUCCACCCUUGAUGAAACUGUGGCUAAUGUUCCUUCACUAGGACAGGCACCAUGAGUGUGUUUCUAAGUUCCAGAGUCUGUGGGGAGGAUGGUGGUGGAAUUCUCGGGUGCCAA` is recorded as 0.473.

Series 2
Target: Interferon regulatory factor 7, full length, phosphomimetic (IRF7, Homo sapiens, UniProt Q92985, residues 1-503, S471D/S472D/S475D/S476D/S477D/S483D/S484D/S487D)
UniProt Q92985, sequence (whole entry, unmodified, looked up): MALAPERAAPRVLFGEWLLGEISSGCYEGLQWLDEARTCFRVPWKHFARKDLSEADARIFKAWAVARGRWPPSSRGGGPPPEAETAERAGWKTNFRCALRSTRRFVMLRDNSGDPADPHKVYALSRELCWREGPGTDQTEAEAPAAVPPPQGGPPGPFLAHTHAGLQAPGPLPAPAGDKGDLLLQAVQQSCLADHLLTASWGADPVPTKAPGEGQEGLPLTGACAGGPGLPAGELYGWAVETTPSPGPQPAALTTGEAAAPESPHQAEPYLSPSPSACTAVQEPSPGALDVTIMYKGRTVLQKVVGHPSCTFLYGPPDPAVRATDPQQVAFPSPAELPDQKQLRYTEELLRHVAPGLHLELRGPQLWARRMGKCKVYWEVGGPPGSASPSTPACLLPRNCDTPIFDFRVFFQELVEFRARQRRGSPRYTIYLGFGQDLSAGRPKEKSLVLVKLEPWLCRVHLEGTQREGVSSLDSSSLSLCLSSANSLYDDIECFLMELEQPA
Technique: protein-binding microarray
Form: double-stranded DNA, one strand shown
Matrix: in vitro
Tested at: 2200 nM top
Notes: 60-bp whole probe
With: salmon DNA 0.4 mg/ml
Baseline: random background probes
Reading: higher = stronger binding
All sequences stand within: GCCTAGCAC … GTCTTGATTCGCTTGACGCTGCTG
`TTTGCTTTACTGATGGCCCTGTGCTAG`: “fitted relative affinity” 1.05 z-score.
`GACGGTATCCTTATCCTGACGTGCTAG` — result for “fitted relative affinity”: 1.19 z-score.
`GACCGTTTCGACACTGGGGACGTGCTA` — result for “fitted relative affinity”: 2.18 z-score.
For `TCAGGACTGGGACTGGGTTAGTGCTAG`, “fitted relative affinity” read -0.636 z-score.
`GACGGTTTCGGTCTCGGGATGTGCTAG`: “fitted relative affinity” 6.61 z-score.
`TTAGGTTTAGACTTTCGGTTAGTGCTA`: “fitted relative affinity” 4.99 z-score.
`TTACATTTCAGTATCGATTAGTGCTAG`: “fitted relative affinity” 2.21 z-score.
For `GAAAAATCTGGAACTAACAGGTGCTAG`, “fitted relative affinity” read -0.685 z-score.
`GACGATTTCAGTATCGAGGCGTGCTAG`: “fitted relative affinity” 0.852 z-score.

Series 3
Target: Histone acetyltransferase KAT6A, both winged helices, GST fusion (KAT6A, Homo sapiens, UniProt Q92794, residues 1-181)
Technique: protein binding microarray
Form: double-stranded DNA, one strand shown
Matrix: in vitro
Tested at: not given
Notes: 8-mer, flanks averaged, mean of 2 arrays, mostly near background
Baseline: not given
Reading: higher = stronger binding
Target sequence (chain): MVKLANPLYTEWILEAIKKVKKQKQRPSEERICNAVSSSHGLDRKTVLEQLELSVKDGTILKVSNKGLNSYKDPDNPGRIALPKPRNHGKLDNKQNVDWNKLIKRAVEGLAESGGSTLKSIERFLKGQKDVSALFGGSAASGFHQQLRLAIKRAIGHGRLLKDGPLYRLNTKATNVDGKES
For `CATCCGGG`, the E-score was -0.00232.
`CTGACCAC` gave an E-score of -0.176.
`GTTGGCCA` gave an E-score of -0.102.
For `ATGTAAAG`, the E-score was -0.0523.
The E-score of `AGAATGTC` is reported as -0.173.
With `AAACTCCC` the E-score was 0.0887.
`CAAGAACG` has an E-score of -0.0252.

Mixed results
For `PhoQ, residues 284 288 289 292 302 303 TYGVAM`, the fold induction was 12.4 (PhoP, residues 12 14 15 18 19 NMSSL (Escherichia coli, UniProt P23836); Sort-seq, item: YFP reporter; E. coli; PhoQ-PhoP variant library, with: 10 µM Mg2+; baseline: high Mg2+ state, higher = stronger signaling).

Some of these lines once more (series 3):
For `ATGTAAAG`, the E-score was -0.0523.
The E-score of `AGAATGTC` is reported as -0.173.
With `AAACTCCC` the E-score was 0.0887.
